Assay results pooled from the literature.
Each numbered part is a random draw from the data of one study; scales do not carry over between parts. Positions count from the first letter of the parent shown.

Series 1 — target: NFE2L2, bZIP domain (human); method: DHFR protein complementation; matrix: yeast; reference: wild-type JUN-FOS pair; direction: higher = stronger binding
Notes: single substitutions, most at no-binding floor
Starting sequence: JUN, bZIP domain (human); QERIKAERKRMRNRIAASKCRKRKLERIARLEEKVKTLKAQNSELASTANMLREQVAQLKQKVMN; partner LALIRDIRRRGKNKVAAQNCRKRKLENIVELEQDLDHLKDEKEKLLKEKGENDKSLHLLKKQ
Substitution	binding fitness
E32R	-1.27 natural log
L31F	-1.52 natural log
L45S	-1.44 natural log
M51G	-1.41 natural log
A57G	-1.52 natural log
L38G	-1.47 natural log
T48D	-1.48 natural log
E32W	-1.5 natural log

Series 2 — method: protein-binding microarray; form: double-stranded DNA, one strand shown; matrix: in vitro; concentration: 250 nM; notes: 60-bp whole probe; added: salmon DNA 0.4 mg/ml; reference: random background probes; direction: higher = stronger binding; constant ends, left off below: GCCTAGCAC … GTCTTGATTCGCTTGACGCTGCTG
Target: Interferon regulatory factor 5, full length, phosphomimetic (IRF5, Homo sapiens, UniProt Q13568-2, residues 1-514, K96S/S451D/S453D/S456D/S462D)
Strand	log fluorescence [z-score]
CTCCTTCAGTATCCTTAGATGTGCTAG	0.498
AACCATTTTGGTTTTCCTTAGTGCTAG	1.08
TGAGATTTCAGACTGGATTAGTGCTAG	0.125
TAAGATTTCAGTTCCGATTAGTGCTAG	2.39
GACGGTCTCGGACTCGGGACGTGCTAG	-0.389
TTAGGTTTCGGACTTGGTTAGTGCTAG	4.8
GTGTTACTAAAATTTCATGAAGTGCTA	0.607
TTAGGTTTCGGGACTGGGTCAGTGCTA	6.27

Series 3 — method: RNA Bind-n-Seq; form: RNA; matrix: in vitro; concentration: 20 nM; notes: 6-mer, flanks averaged, single round; added: 150 mM LiCl; reference: input library; direction: higher = stronger binding
Target: TAR DNA-binding protein 43, full length, His tag (TARDBP, Homo sapiens, UniProt Q13148, residues 1-414)
Strand	6-mer enrichment (R)
CGUUUC	0.948
GCACGC	0.93
CGGGGU	1.14
UUGUGA	1.17
AGUCUC	0.832
GAGGUA	1.08
AAGACU	0.801
UUGAGA	1

Mixed results — starting sequence: viral docking peptide; KKVKRRLFETREL
Substitution	target	test	system	conditions	scale	endpoint	value
L7A	CCND3, cyclin fold, Cln2 fusion (human)	yeast growth competition, sequencing	yeast	weak parent motif	reference: not given, higher = stronger binding	normalised enrichment score	0.279
